Assay results from different studies.
Each numbered part is a random draw from the data of one study; scales do not carry over between parts.
Chain of UniProt P62837 (whole entry, looked up): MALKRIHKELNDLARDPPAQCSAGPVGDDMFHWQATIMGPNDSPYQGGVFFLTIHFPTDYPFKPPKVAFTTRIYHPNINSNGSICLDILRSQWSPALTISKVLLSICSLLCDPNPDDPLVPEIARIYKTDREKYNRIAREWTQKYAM

Block 1
Partner: ARF8 699-811 (Arabidopsis thaliana, UniProt Q9FGV1)
Method: two-hybrid
Baseline: out of 4 tests
Reading: higher = firmer interaction
B1: ARF2 727-859 (Arabidopsis thaliana, UniProt Q94JM3); chain TKTNSSRSCTKVHKQGIALGRSVDLSKFQNYEELVAELDRLFEFNGELMAPKKDWLIVYTDEENDMMLVGDDPWQEFCCMVRKIFIYTKEEVRKMNPGTLSCRSEEEAVVGEGSDAKDAKSASNPSLSSAGNS
B2: IAA32 (Arabidopsis thaliana, UniProt Q8RYC6); chain MDPNTPADFFKGSSKFHTYYSQTKKGGGVIDLGLSLRTIQHETYLPPARMIGLDGYGELIDWSQPSYNSITQLKSEDTGHQRLAQGYYNNEGESRGKYAYVKVNLDGLVVGRKVCLVDQGAYATLALQLNDMFGMQTVSGLRLFQTESEFSLVYRDREGIWRNVGDVPWKEFVESVDRMRIARRNDALLPF
B3: ARF1 538-665 (Arabidopsis thaliana, UniProt Q8L7G0); chain SRQIRSCTKVHMQGSAVGRAIDLTRSECYEDLFKKLEEMFDIKGELLESTKKWQVVYTDDEDDMMMVGDDPWNEFCGMVRKIFIYTPEEVKKLSPKNKLAVNARMQLKADAEENGNTEGRSSSMAGSR
B4: ARF6 790-935 (Arabidopsis thaliana, UniProt Q9ZTX8); chain SENPQSNTFVKVYKSGSFGRSLDISKFSSYHELRSELARMFGLEGQLEDPVRSGWQLVFVDRENDVLLLGDDPWPEFVSSVWCIKILSPQEVQQMGKRGLELLNSAPSSNNVDKLPSNGNCDDFGNRSDPRNLGNGIASVGGSFNY
B5: ARF4 660-788 (Arabidopsis thaliana, UniProt Q9ZTX9); chain QSSSKRICTKVHKQGSQVGRAIDLSRLNGYDDLLMELERLFNMEGLLRDPEKGWRILYTDSENDMMVVGDDPWHDFCNVVWKIHLYTKEEVENANDDNKSCLEQAALMMEASKSSSVSQPDSSPTITRV
B6: ARF7 1030-1164 (Arabidopsis thaliana, UniProt P93022); chain PAQTQRMRTYTKVQKRGSVGRSIDVNRYRGYDELRHDLARMFGIEGQLEDPQTSDWKLVYVDHENDILLVGDDPWEEFVNCVQSIKILSSAEVQQMSLDGNFAGVPVTNQACSGGDSGNAWRGHYDDNSATSFNR
Target sequence (chain): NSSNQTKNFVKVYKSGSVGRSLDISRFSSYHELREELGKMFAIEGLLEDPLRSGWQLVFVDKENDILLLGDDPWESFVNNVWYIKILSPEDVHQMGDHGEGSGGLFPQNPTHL
Sequence | positive tests
B1 (ARF2 727-859) | 0
B2 (IAA32) | 4
B3 (ARF1 538-665) | 1
B4 (ARF6 790-935) | 0
B5 (ARF4 660-788) | 0
B6 (ARF7 1030-1164) | 0

Block 2
Target: Eukaryotic initiation factor 4A-I (EIF4A1, Homo sapiens, UniProt P60842, residues 1-406, full length assumed)
Chain of UniProt P60842 (whole entry, looked up): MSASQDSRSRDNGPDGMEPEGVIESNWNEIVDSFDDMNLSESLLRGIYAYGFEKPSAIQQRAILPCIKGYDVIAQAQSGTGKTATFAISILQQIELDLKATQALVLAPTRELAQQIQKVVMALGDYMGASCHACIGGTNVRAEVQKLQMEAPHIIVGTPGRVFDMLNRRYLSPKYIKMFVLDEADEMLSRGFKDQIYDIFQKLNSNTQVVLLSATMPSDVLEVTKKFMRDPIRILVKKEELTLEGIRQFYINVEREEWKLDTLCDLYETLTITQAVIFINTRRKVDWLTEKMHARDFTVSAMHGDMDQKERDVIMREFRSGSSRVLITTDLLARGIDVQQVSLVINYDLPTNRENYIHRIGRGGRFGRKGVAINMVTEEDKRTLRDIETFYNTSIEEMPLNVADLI
Method: RNA Bind-n-Seq
Molecule type: RNA
Medium: in vitro
Concentration: not given
Setting: 4-mer, random 30-nt RNA, single round
Together with: RocA, ADP, phosphate
Baseline: input library
Reading: higher = stronger binding
Sequence | 4-mer enrichment [fold]
UUCU | 0.578
CUCU | 0.444
GAAC | 0.989
CGUU | 0.758
UCCC | 0.597
GCUC | 0.498
GUUC | 0.707
UUCC | 0.541

Single results of other studies
Sequence | target | test | test system | conditions | how to read | endpoint | value
LEALSSDFLACKICLEQLRAPKTLPCLHTYCQDCLAQLADGGRVRCPECRETVPVPPEGV (TRIM56 RING domain (UniProt Q9BRZ2)) | UBE2D2 UBC core domain (UniProt P62837) | yeast two-hybrid | yeast | mostly zero background | baseline: not given, higher = stronger interaction | lacZ reporter activity | 0
VLSDLCNFL | HLA class I histocompatibility antigen, A alpha chain, allele A*25:01 (Homo sapiens, UniProt P04439) | peptide-MHC binding | peptide | concentration not given | – | binding | inactive

A few entries again (block 1):
Sequence | positive tests
B2 (IAA32) | 4
B6 (ARF7 1030-1164) | 0
B5 (ARF4 660-788) | 0
